Assay results of several laboratories.
Numbered parts are unrelated; each lists some results of a single study. Substitutions count along the parent as printed.

Sample 1
Target: Centromere-binding protein 1, full length, His-tagged (CBF1, Saccharomyces cerevisiae, UniProt P17106, residues 1-351)
Sequence of UniProt P17106 (whole entry, looked up): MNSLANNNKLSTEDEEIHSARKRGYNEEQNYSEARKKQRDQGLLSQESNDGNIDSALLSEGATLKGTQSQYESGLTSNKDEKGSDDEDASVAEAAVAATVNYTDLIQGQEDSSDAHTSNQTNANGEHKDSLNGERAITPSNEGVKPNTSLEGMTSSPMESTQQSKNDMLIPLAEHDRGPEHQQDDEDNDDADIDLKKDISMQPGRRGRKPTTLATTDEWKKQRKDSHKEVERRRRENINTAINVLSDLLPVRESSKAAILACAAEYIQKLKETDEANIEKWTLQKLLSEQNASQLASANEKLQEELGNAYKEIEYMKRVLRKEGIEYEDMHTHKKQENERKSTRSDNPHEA
Method: competition protein-binding microarray
Form: double-stranded DNA, one strand shown
Medium: in vitro
Tested at: 2 µM
Notes: whole 60-bp probe, lowest competitor level
With: Pho4 competitor, 0.05 µM
Reading: higher = stronger binding
Shared flanks, not repeated: … GTCTTGATTCGCTTGACGCTGCTG
Strand	fluorescence intensity
GATGGTATACGCCGTCACGTCTTTTACAATGAAGTG	264 a.u.
GGCGCAACATTTAATTGCATGACAAATTCCACTGCT	83.6 a.u.
ATGGGCTCGAAAAATCTCGTGCCAGTGTAGACTCCC	133 a.u.
CGTCCTAGTGATTGGTCAGTGGGTGCCATGAGGAAG	87.6 a.u.
GGGTACCCAATTCGTCACGTTTCACGAATTCTCGGG	518 a.u.
TGAGCCTTCCCGTCGCGCGTGATGGGGAGATACAGA	108 a.u.
TCCGAGGTTAGAGTGCCCGTGATGGACCTTTACGAA	103 a.u.
GACAAGGACATTTTGCACGTTGACATTCCGGTAACT	115 a.u.
AAAGCGGTAATTTGGACTGTGGGTGCAGATATCTAT	71.2 a.u.
AGTTACCCAGCCGCCCTCGTGCTTTGTAGTGCCATC	91.1 a.u.
GCTTCGATGTTTCCTCACGTTGTGATGTTACTTCAG	127 a.u.
GAATAGGGATATCTGCACATGGGGCCTCGAGCATGG	91.2 a.u.
GCGGGTATTCCCCCTGGTGTGATGAACATTGTATCC	74.4 a.u.
TAACGTACAGGAAGTAACGATCAAACAAAATAAATT	82 a.u.
CAATTCTTTTACCATCACGTCACCTAACCAACCATT	115 a.u.
AAAAGCCAACGCCATCACGTGCAAAGAAATATCTGC	6600 a.u.
CGTCCTAGTGATTGCTCGGTGGGTGCCATGAGGAAG	71 a.u.
CTAACGAAGGTTTGTCACCACACTTACAAGCCAAGT	89.7 a.u.
CATACCCAACCTTGAAGAGTGGGTGAAGATATTTGT	72.6 a.u.
CTTTCCCGATCTTGTTTCGTGGGTGTAGCACATTTG	81 a.u.
CTAACGAAGGTTTTTCACGTGTACTACAAGCCAAGT	822 a.u.
CGTCCTAGTGATTGCCAAGTGGGTGCCATGAGGAAG	83.6 a.u.
GAGACCACATATTCACACGTGATGGATAGTCCCGTT	2820 a.u.
CGTCCTAGCGATTGAACAGTGGGTGCCATGAGGAAG	84.5 a.u.
GTCTTGTCTCATTGGAGGGTGGGTGTCCCCACTTCA	84.1 a.u.

Sample 2
Target: CCND3, cyclin fold, Cln2 fusion (human)
Method: yeast growth competition, sequencing
Medium: yeast
Notes: weak parent motif
Baseline: not given
Reading: higher = stronger binding
Parent: SCAPER docking peptide (human); SNARRSLNFGGST; partner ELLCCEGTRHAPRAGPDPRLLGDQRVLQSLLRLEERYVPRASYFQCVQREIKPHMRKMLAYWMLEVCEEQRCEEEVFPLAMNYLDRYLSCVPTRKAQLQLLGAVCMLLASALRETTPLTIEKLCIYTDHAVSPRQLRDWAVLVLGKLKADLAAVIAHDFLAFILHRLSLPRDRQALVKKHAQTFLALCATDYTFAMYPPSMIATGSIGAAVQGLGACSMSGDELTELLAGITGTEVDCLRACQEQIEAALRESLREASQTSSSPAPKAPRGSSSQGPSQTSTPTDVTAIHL
Substitution	normalised enrichment score
SNMRRSLNFGGST [A3M]	0.155
SNARRSLNFGGSY [T13Y]	0.125
SNARRSTNFGGST [L7T]	0.13
SNARRSLNKGGST [F9K]	0.116
SNARRSANFGGST [L7A]	0.262
SNARRSLIFGGST [N8I]	0.198
SNARDSLNFGGST [R5D]	0.0875
SNHRRSLNFGGST [A3H]	0.146
SNARRSLNVGGST [F9V]	0.0374
SNARRSRNFGGST [L7R]	0.103
SNARRSLNFGIST [G11I]	0.129
SEARRSLNFGGST [N2E]	0.141
SNARRNLNFGGST [S6N]	0.102
SNARRSLNFGGSF [T13F]	0.16
SNARRSLNFGDST [G11D]	0.17
SNASRSLNFGGST [R4S]	0.0441
SNARRSLNFGKST [G11K]	0.297
SNERRSLNFGGST [A3E]	0.198
SNACRSLNFGGST [R4C]	0.15
SNARRSLNFGAST [G11A]	0.149
SIARRSLNFGGST [N2I]	0.158

Sample 3
Target: Ras GTPase-activating protein-binding protein 1, full length (G3BP1, Homo sapiens, UniProt Q13283)
Sequence of UniProt Q13283 (whole entry, looked up): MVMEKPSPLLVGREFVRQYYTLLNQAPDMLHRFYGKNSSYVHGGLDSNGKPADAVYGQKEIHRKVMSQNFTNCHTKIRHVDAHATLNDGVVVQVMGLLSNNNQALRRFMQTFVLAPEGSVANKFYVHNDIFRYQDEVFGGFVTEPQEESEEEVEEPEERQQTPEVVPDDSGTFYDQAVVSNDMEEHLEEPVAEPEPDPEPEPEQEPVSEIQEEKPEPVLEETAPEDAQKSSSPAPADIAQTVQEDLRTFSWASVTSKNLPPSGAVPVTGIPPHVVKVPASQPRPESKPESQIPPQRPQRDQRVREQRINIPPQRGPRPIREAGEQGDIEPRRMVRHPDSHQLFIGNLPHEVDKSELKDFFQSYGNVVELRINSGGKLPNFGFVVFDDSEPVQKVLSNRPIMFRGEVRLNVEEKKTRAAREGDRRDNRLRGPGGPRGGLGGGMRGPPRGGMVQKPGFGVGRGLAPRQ
Method: RNA Bind-n-Seq
Form: RNA
Medium: in vitro
Tested at: 200 nM
Notes: whole 134-nt RNA, ends assumed
With: 150 mM LiCl
Baseline: input library
Reading: higher = stronger binding
Each molecule: 7-deaza-guanosine replaces G
Shared flanks, not repeated: GGGAGUUCUACAGUCCGACGAUC … UGGAAUUCUCGGGUGUCAAGG
Strand	log2 enrichment
GCAGGAAGUAAAAACAAAUGGAAAUGCUUCGGAUAGUGGCAGGGGUGGGGGUUGCCAAGGAAAGGGUGGGAUGGGAGUGGGUAAAGAGUU	-0.0288
AAGUCCUGUGCUACACAUCGUAUGUACCGAAUCGGGUUUUUUUGGGAAAGGGUGGGAAAGUAUUAUGUUACGCCGUUCGGAUCUGCACUU	-0.89
UGGCCCUGGUGGCAUGCGGGGAGGAUGAGGUGGCCUCAUGGAUCGUGGUGGUCCCGGUGGAAUGUUCAGAGGUGGCCGUGGUGGAGACAG	0.459
AAGUCCUGUGCUACACAUCGUAUGUACCGAAUCGGGUUUUUGGGUGGGUUUUUGGGAAAGUAUUAUGUUACGCCGUUCGGAUCUGCACUU	-0.783
UGUUGAAAUGGGACAGUUGGCAGCGGCUCUGAUGAGCCCGAGAAGAGGCCUGCCCUUGGGUGCGGAGUCUCCCUCCGCACGAUGCUCCCA	0.05
CUGUGCUACACAUCGUAUGUACCGAAUCGGGGUUUUUGGGGUUUUUGGGGUUUUUUUGGGGAAAGUAUUAUGUUACGCCGUUCGGAUCUG	1.48
UGGCCCUGGUGGCAUGCGCGGAGGAAGAGGUGGCCUCAUGGAUCGUGGUGGUCCCGGUGGAAUGUUCAGAGGUGGCCGUGGUGGAGACAG	0.183
AAGUCCUGUGCUACACAUCGUAUGUACCGAAUCGGGGUUUGGGGAAAGGGGUGGGGAAAGUAUUAUGUUACGCCGUUCGGAUCUGCACUU	-0.464
UCCUGUGCUACACAUCGUAUGUACCGAAUCGGGGUUUUUUUGGGGAAAAAGGGGUGGGGAAAGUAUUAUGUUACGCCGUUCGGAUCUGCA	-0.0463
UCCUGUGCUACACAUCGUAUGUACCGAAUCGGGGUUUUUGGGGUUUUUGGGGUUUUUGGGAAAGUAUUAUGUUACGCCGUUCGGAUCUGC	1.08
UGGGAGGUGGAUUUUGUUUAUUUUUUUAGCUCAUUUCCAGGGGUGGGAAUUUUUUUUUAAUAGGUGUCAUGAAUAAAGUUGUUUUUGAAA	-0.124

Sample 4
Target: TAR DNA-binding protein 43, full length, His tag (TARDBP, Homo sapiens, UniProt Q13148, residues 1-414)
Method: RNA Bind-n-Seq
Form: RNA
Medium: in vitro
Tested at: 20 nM
Notes: 6-mer, flanks averaged, single round
With: 150 mM LiCl
Baseline: input library
Reading: higher = stronger binding
Strand	6-mer enrichment (R)
GCGUGA	1.15
ACCCGU	0.92
CUGAUG	0.916
GAUCAC	0.822
AGUAUG	1.34
AUUACA	0.882
UGUUCA	0.961
CAGGAU	0.862
UCAAGA	0.796
CAUCCU	0.871
AUAGGA	0.901
UCGGUU	0.975
AUUCAA	0.859
ACUCCU	0.971
UUAAUG	1.04
UAAGGG	1.06
GGGUUU	1.21
UCGCCA	0.861

Sample 5
Target: RNA binding protein fox-1 homolog 2, RRM domain, GST-SBP tag (RBFOX2, Homo sapiens, UniProt O43251-10, residues 100-194)
Method: RNA Bind-n-Seq
Form: RNA
Medium: in vitro
Tested at: 365 nM
Notes: natural RNA segment, single round, ends assumed
Baseline: no-protein control
Reading: higher = stronger binding
Shared flanks, not repeated: GGGAGUUCUACAGUCCGACGAUC … UGGAAUUCUCGGGUGCCAA
Target sequence (chain): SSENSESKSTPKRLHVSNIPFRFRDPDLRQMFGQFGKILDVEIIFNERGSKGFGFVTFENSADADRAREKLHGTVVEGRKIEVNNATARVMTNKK
Strand	RBNS enrichment (R)
AUCUCUGCGCCUUUCUGGGGGCGGGCAAGCUGGCGGUAGAUUUGUGAUGUCACAGUGCAAACUGCAGUGACUGUAAAUUGGCCUGGCGUGUAUAAACGUUUUCAGGGAAU	0.417
UAAUGAACAGUGCCAAAUACACUGUGCAUAUCUAUAAUUUUCCAUUUGAAUGUAUGUUAAUUACUCCCUUCUAUGUGAUGGUCCCAUGCUUAGAGUCAGUGAAGUUCUUG	0.61
GCCCCAGGGUGGCUGCCUCGGCCCUCCCAGCUCUUACACUCAGCUCCAGUGGCUUCUCCUUUCUGUCAAGACUUAGCCCCGCUGAGAUGCCCUUCUGCUCCAGCUUGCUG	0.863
CCUGCCUGCCGUCCUUGCGUCCACCAUCCCUCUGCCAGGAUGCUGCUCUUGCACCAAGUGCCUUCUGCAUCCCUCAGUCCAUCCGCGUACCAGUAGCCUCCCGUCCUAAU	1.46
UCUCUUUCAAGUGCCUUAAUCCGAGCCAGCAGGGCCUUCUGCUUGCCUGCUGCCAUACUGUAUGUAGGAAAGUGUUCUGUGGCUGCUUUGUGUCAAGAAAAGAGCAGUCA	0.506
GCAGUCAUUCUCUCUGUACAUCAGAGCUUAGUUCGAAUGGAAUCAUGAAAAUCUCUGAUUCUGACCUCCUAAGGAAAAAUGAAACCCAGAGGAUGUGGUCAUACAGGAUG	0.304
CUUUCAGUGUACUAAAAGGCAGAAAGGUCAUCACAACUUUAGUGUCAGAAUCUAUAGUGGUGGCAAAGUUAGGAUAGCUCUUUAGUAAUUUGGGCCCAGUGCCUUGGUGA	0.41
ACAAUAAAGCACAGGCCUUACCGCGGCGUCACCCUCUCCCACUCCUUUGUUCUGGGUCCUUUCGGGAGGGCUGAUGGGCAGCACAGGAGGCCCGUCCUCGGGGGGCUGCG	0.338
UGAGUGUGAGACACGUGCUUUGAACUGCUUUUCUAUUCAUGGAGCACUCCAUAGUCUCAAACUGUCCCCCUUAUGACCAACAGCACAUUUGUGAAGAGGUUCGCAGGGAU	0.441
AGACUUUUAAUGUAUUUCUUUAAUUUGAAAUGUUUUGUGGAUUGUGAAAUAAAAAUAAAUUUAUGUCAAGUUUUAUUCAAAAUUCAUUUAUGAAAUAAUGCCAACACUGU	0.747
UAAAUUAAGAAGAUAGAACAAAGAGAAAGACAUUAAUGUUACCUAAGAAACACAUUUAACAUCCGAAGAAGCAAUGCUGUCCUCACUUGAUGUUUCUCUUCUCAACCCAG	0.303
UAGAAGAUGGACUCUGAAAGACAUUCCAAGAGUGCCGCGGCAGCAUGGGAGCCUCUUAGUGAUUGUGUCAGUAUUAUUGUGGAAGAUUGCCUUUGCUGUUGUAUGUAAAG	8.35

A few entries again (sample 1):
Strand	fluorescence intensity
CGTCCTAGTGATTGGTCAGTGGGTGCCATGAGGAAG	87.6 a.u.
GGGTACCCAATTCGTCACGTTTCACGAATTCTCGGG	518 a.u.
TGAGCCTTCCCGTCGCGCGTGATGGGGAGATACAGA	108 a.u.
TCCGAGGTTAGAGTGCCCGTGATGGACCTTTACGAA	103 a.u.
GACAAGGACATTTTGCACGTTGACATTCCGGTAACT	115 a.u.
AAAGCGGTAATTTGGACTGTGGGTGCAGATATCTAT	71.2 a.u.
AGTTACCCAGCCGCCCTCGTGCTTTGTAGTGCCATC	91.1 a.u.
GCTTCGATGTTTCCTCACGTTGTGATGTTACTTCAG	127 a.u.
GAATAGGGATATCTGCACATGGGGCCTCGAGCATGG	91.2 a.u.
GCGGGTATTCCCCCTGGTGTGATGAACATTGTATCC	74.4 a.u.
TAACGTACAGGAAGTAACGATCAAACAAAATAAATT	82 a.u.
CAATTCTTTTACCATCACGTCACCTAACCAACCATT	115 a.u.
